# Published values collected from several papers.
# Each numbered part is a random draw from the data of one study; scales do not carry over between parts. “And” joins repeats or separate records; there may be more than shown.
# Sequence of UniProt Q14542 (whole entry, looked up): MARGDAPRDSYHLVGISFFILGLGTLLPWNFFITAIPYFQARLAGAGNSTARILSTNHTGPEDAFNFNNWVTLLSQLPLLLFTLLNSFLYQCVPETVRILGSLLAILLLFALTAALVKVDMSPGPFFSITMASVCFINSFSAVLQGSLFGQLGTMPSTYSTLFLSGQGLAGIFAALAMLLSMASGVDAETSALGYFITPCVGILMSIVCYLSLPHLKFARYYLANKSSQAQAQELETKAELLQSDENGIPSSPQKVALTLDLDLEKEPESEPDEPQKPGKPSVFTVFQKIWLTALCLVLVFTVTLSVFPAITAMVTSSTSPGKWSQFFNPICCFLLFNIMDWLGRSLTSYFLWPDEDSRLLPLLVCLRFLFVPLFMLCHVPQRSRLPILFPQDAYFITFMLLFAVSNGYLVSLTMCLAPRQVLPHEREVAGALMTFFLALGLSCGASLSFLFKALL

# Set 1
# SMILES: Cc1ccc(O)c(C)c1-c1cnc2[nH]c(-c3ccc(N4CCN(C)CC4)nc3C)nc2c1
# Target: Membrane-associated tyrosine- and threonine-specific cdc2-inhibitory kinase (PKMYT1, Homo sapiens, UniProt Q99640)
# Target sequence (Q99640 1-499): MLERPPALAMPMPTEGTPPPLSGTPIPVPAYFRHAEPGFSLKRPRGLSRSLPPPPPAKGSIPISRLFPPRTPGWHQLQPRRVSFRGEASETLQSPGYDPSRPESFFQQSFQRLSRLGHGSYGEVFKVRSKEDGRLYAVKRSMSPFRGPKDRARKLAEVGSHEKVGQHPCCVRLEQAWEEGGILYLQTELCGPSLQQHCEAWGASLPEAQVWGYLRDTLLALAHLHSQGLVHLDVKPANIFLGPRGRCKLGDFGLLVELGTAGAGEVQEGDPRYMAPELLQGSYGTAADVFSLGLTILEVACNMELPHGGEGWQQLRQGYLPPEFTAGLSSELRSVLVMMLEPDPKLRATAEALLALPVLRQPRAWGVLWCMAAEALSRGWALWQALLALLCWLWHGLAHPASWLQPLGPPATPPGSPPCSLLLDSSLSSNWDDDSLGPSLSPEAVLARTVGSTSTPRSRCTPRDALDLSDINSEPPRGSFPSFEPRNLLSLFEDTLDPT
effect on,method,concentration,inhibition
,,0.000508 µM,-13.6%
cell-free assay,TR-FRET,10 µM,97.3%
,,3.333 µM,90.9%
,,0.00152 µM,-15.9% and -17.3%
cell-free assay,TR-FRET,0.3704 µM,57%
,,0.3704 µM,50.3%
,,0.04115 µM,-1.82% and 2.68%

# Set 2 — effect on: binding; action: competitor; method: NanoBRET; cells: HEK293
# SMILES: CN1CCC[C@H]1COc1nc2c(c(N3CCN(C(=O)C4CC4)[C@@H](CC#N)C3)n1)CCN(c1cccc3cccc(Cl)c13)C2
# KRAS Q61H: GTPase KRas (KRAS, Homo sapiens, UniProt P01116, Q61H)
target,concentration,normalized BRET
"GTPase KRas (KRAS, Homo sapiens, UniProt P01116, G13D)",33.3 µM,6.24% and 4.68% and 3.96%
KRAS Q61H,137 nM,96.9% and 98.6% and 96.3%
KRAS Q61H,5.08 nM,96.3% and 98.1% and 98%
KRAS Q61H,1.69 nM,99.7% and 95.2% and 95.9%
"GTPase KRas (KRAS, Homo sapiens, UniProt P01116, G12D)",5.08 nM,109% and 102% and 99.1%
KRAS Q61H,15.2 nM,96.3% and 100% and 103%

# Set 3 — effect on: thermal unfolding; method: differential scanning fluorimetry; concentration: 5.5 µM; direction: higher = more unfolded
# SMILES: C[C@@H]1CN(c2ccc(-c3cc(C(=O)NCCOCCOCCOCCOCCNC(=O)Cn4cc(-c5[nH]cc(C(=O)N[C@@H](CC(N)=O)c6ccc(F)c(Cl)c6)c5-c5ccc(Cl)cc5F)cn4)ccc3F)cc2NC(=O)c2c[nH]c(=O)cc2C(F)(F)F)C[C@H](C)N1C
# DCAF1: DDB1- and CUL4-associated factor 1 (DCAF1, Homo sapiens, UniProt Q9Y4B6)
# Sequence of UniProt Q9Y4B6 (whole entry, looked up): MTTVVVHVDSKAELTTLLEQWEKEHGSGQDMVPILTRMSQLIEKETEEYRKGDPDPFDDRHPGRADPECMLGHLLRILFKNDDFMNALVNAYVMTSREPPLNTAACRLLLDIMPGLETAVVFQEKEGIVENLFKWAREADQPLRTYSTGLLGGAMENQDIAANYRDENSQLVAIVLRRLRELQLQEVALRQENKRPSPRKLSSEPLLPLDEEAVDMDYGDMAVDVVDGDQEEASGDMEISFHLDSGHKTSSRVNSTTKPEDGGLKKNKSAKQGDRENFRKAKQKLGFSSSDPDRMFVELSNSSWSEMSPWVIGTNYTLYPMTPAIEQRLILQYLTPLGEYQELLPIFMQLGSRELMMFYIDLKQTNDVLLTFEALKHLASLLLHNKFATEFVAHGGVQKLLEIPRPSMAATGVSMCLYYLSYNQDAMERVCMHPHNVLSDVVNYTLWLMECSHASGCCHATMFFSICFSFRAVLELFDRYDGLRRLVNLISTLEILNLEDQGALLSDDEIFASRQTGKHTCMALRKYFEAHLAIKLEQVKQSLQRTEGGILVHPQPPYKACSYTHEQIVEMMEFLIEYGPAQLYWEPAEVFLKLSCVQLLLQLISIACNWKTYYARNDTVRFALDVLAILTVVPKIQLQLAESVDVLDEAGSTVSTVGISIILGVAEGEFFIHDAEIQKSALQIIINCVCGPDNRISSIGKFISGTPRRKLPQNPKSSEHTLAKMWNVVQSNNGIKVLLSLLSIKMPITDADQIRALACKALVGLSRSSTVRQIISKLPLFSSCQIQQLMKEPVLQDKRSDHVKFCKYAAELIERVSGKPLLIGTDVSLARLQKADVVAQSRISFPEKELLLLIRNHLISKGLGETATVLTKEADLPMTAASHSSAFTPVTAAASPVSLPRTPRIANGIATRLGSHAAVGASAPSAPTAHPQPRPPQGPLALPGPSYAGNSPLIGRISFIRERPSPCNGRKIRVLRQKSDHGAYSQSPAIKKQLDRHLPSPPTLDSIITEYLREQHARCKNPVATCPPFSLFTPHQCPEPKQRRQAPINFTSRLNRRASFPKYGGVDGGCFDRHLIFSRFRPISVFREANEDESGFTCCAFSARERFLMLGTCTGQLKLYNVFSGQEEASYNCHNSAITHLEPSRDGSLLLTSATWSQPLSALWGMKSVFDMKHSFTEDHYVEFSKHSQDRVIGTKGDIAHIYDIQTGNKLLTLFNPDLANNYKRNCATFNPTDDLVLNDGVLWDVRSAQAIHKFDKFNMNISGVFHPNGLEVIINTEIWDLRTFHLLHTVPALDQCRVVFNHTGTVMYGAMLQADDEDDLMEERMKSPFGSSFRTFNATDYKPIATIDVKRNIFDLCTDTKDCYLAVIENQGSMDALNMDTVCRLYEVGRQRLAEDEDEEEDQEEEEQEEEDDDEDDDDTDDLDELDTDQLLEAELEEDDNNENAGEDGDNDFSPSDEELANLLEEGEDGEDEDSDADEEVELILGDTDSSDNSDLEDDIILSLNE
# WDR5: WD repeat-containing protein 5 (WDR5, Homo sapiens, UniProt P61964)
target,temperature,SYPRO Orange fluorescence [a.u.]
DCAF1,59.21 °C,34000
DCAF1,49.6 °C,14300
WDR5,46.6 °C,14300
WDR5,67.01 °C,7040
DCAF1,43 °C,11400
DCAF1,39 °C,9920
WDR5,74.61 °C,10400
WDR5,81.21 °C,27300
WDR5,41.6 °C,14200
DCAF1,42.2 °C,11100
DCAF1,64.41 °C,55000

# Further values, each from its own experiment
SMILES,target,effect on,action,cells,with,quantity,result
COc1cc(C(=O)OCCCN2CCCN(CCCOC(=O)c3cc(OC)c(OC)c(OCc4ccc([N+](=O)[O-])cc4)c3)CC2)cc(OC)c1OC,"Equilibrative nucleoside transporter 2 (Homo sapiens, UniProt Q14542)",adenosine uptake,inhibitor,Xenopus laevis oocytes,[3H]adenosine,Hill slope,-0.235

# A few entries again (set 1):
effect on,method,concentration,inhibition
,,0.000508 µM,-13.6%
cell-free assay,TR-FRET,10 µM,97.3%
,,3.333 µM,90.9%
